Assay results gathered from unrelated publications.
Every numbered part comes from another study and shows a few of its results, in no order.

Study 1 — method: protein-binding microarray; molecule type: double-stranded DNA, one strand shown; matrix: in vitro; concentration: 250 nM; setting: 60-bp whole probe; together with: salmon DNA 0.4 mg/ml; reference: random background probes; reading: higher = stronger binding; shared flanks, not repeated: GCCTAGCAC … GTCTTGATTCGCTTGACGCTGCTG
Target: Interferon regulatory factor 7, full length, phosphomimetic (IRF7, Homo sapiens, UniProt Q92985, residues 1-503, S101K/S471D/S472D/S475D/S476D/S477D/S483D/S484D/S487D)
Chain of UniProt Q92985 (whole entry, unmodified, looked up): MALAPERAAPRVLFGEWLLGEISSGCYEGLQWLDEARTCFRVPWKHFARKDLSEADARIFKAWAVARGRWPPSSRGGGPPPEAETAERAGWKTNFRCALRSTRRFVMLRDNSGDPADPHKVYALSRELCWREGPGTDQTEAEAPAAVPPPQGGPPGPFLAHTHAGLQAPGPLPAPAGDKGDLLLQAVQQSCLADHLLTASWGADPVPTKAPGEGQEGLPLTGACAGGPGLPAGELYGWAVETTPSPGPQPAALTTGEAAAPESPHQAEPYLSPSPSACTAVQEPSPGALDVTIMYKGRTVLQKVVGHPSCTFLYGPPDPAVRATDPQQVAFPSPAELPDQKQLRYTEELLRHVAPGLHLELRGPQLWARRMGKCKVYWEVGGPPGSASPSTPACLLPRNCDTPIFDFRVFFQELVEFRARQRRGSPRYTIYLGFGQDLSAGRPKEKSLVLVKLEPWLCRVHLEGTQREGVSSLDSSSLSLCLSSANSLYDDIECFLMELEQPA
Sequence	log fluorescence
GACGGACTGGGGTTTCGGCACGTGCTA	-0.464 z-score
ATAGGTATCGGTATCGGTTAGTGCTAG	2.88 z-score
GACGGTATCCTTCTCATGACGTGCTAG	0.236 z-score
TCATGTTGCAGACTCGAACTGTGCTAG	0.573 z-score
TTAGGTATCAGTATCGGTTAGTGCTAG	1.29 z-score
AGACCATCCTGTATGGATGTGTGCTAG	-0.156 z-score
TTAGAACTGGGGTATAGATTAGTGCTA	-0.394 z-score
TTAGTTCTCAGTATCGATTAGTGCTAG	1.81 z-score
GACGGTAACCTTCTCCTGACGTGCTAG	-0.552 z-score
TTAGGTTCCCTTTTCCTTTTGTGCTAG	4.44 z-score
GACGAATTCAGTCTCGAGACGTGCTAG	0.55 z-score
GACGGTATCCGTCTCCTGACGTGCTAG	-0.598 z-score
TCAGGTGTTCTTTTCTGACTGTGCTAG	-0.0698 z-score
TTAGGTTCCGGGACTGGGTTAGTGCTA	0.712 z-score
TTAGGACTGGACGATCGGTTAGTGCTA	-0.62 z-score
TTAGATCTCAGTATCGACTAGTGCTAG	0.248 z-score
GACGGACCGCTACTGCTGACGTGCTAG	-0.809 z-score
GACGGACTGGGTTTCGGGAAGTGCTAG	0.694 z-score

Study 2 — target: UBE2T UBC core domain (UniProt Q9NPD8); method: yeast two-hybrid; matrix: yeast; setting: mostly zero background; reference: not given; reading: higher = stronger interaction
Chain of UniProt Q9NPD8 (whole entry, looked up): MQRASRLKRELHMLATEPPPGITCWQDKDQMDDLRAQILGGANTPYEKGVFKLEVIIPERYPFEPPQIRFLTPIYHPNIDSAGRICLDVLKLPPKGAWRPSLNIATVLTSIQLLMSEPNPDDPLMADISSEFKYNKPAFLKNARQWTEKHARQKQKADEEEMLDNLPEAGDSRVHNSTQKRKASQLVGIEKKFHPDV
B1: RNF130 RING domain (UniProt Q86XS8); chain DKETDPDFDHCAVCIESYKQNDVVRILPCKHVFHKSCVDPWLSEHCTCPMCKLNILKALGIV
B2: RNF10 RING domain (UniProt Q8N5U6); chain VRICSHEVPSCPICLYPPTAAKITRCGHIFCWACILHYLSLSEKTWSKCPICYSSVHKKDLKS
B3: RMND5B RING domain (UniProt Q96G75); chain MKCWYHSVFACPILRQQTSDSNPPIKLICGHVISRDALNKLINGGKLKCPYCPMEQNPADGK
B4: CBLL1 RING domain (UniProt Q75N03); chain GEKDDTPVHFCDKCGLPIKIYGRMIPCKHVFCYDCAILHEKKGDKMCPGCSDPVQRIEQCT
B5: PJA2 RING domain (UniProt O43164); chain DHTAIGQEQCCPICCSEYIKDDIATELPCHHFFHKPCVSIWLQKSGTCPVCRRHFPPAVIEA
Sequence	lacZ reporter activity
B1 (RNF130 RING domain)	0
VPADASPDSKCPICLDRFDNVSYLDRCLHKFCFRCVQEWSKNKAECPLCKQPFDSIFHSV (TOPORS RING domain (UniProt Q9NS56))	0
B2 (RNF10 RING domain)	0
B3 (RMND5B RING domain)	0
B4 (CBLL1 RING domain)	0
GSEEEEIPFRCFICRQAFQNPVVTKCRHYFCESCALEHFRATPRCYICDQPTGGIFNPA (RNF113B RING domain (UniProt Q8IZP6))	0
B5 (PJA2 RING domain)	0
PLRRLQEEKLCKICMDRHIAVVFIPCGHLVTCKQCAEAVDRCPMCSAVIDFKQRVF (BIRC8 RING domain (UniProt Q96P09))	0

Study 3 — method: protein binding microarray; molecule type: double-stranded DNA, one strand shown; matrix: in vitro; concentration: not given; reference: not given; reading: higher = stronger binding
Target: Histone acetyltransferase KAT6A, both winged helices, GST fusion (KAT6A, Homo sapiens, UniProt Q92794, residues 1-181)
Setting: 8-mer, flanks averaged, mean of 2 arrays, mostly near background
Construct (chain): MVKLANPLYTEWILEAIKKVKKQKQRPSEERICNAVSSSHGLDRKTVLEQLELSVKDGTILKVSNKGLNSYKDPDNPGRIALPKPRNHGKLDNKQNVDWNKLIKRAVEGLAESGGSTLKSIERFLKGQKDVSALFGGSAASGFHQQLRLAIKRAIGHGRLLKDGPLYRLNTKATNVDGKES
Sequence	E-score
AGAATCAG	-0.0848
CACTAGAA	-0.11
CGACTGAG	-0.143
GCTTCGGA	0.101
ACAGCCAG	-0.294
CGATTACC	0.113
CACATGCC	0.0409
GCCTGAGA	-0.00955
ACTCGACA	-0.065
GAGTCGCC	0.106
GAGGATCA	-0.118
CTTCGGAA	0.178
GCTGTACA	0.0234
CCTCGGGC	0.0546
AACAAAGC	0.0697
GTCGCACA	0.136
ACCTCCGG	0.0326
CGTTCACA	0.0547
ATCTGAAT	-0.0964
TACACGGA	0.19
CAGGAAGG	-0.125
ACAGGACT	-0.18
CAACTCAC	-0.247
AGATCAAG	-0.124
ACGACCCT	-0.133

Study 4 — method: protein-binding microarray; molecule type: double-stranded DNA, one strand shown; matrix: in vitro; concentration: not given; reading: higher = stronger binding
Target: Protein C-ets-1 (ETS1, Homo sapiens, UniProt P14921, residues 1-441, full length assumed)
Setting: k-mer, scored over probes, only values ≥0.25
Residues (chain): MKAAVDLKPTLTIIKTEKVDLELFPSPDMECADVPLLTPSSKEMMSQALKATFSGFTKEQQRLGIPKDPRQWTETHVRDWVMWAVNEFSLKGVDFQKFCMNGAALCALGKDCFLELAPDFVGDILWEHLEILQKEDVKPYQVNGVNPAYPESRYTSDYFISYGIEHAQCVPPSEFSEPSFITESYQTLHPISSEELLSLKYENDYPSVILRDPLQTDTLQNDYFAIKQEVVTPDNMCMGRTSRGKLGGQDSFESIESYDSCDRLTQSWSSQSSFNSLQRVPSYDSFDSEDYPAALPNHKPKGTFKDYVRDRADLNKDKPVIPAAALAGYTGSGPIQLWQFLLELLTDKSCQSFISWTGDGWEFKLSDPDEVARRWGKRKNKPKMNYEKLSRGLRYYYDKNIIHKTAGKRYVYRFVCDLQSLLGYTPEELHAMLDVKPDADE
Sequence	E-score
GGGGGAGA	0.253
AAATATCC	0.301
AACATCCT	0.449
CCTGGAAA	0.297
AGAGGCGG	0.258
ACCGGAAG	0.498
AGGCCGGA	0.383
ATCCTCTA	0.274
AGCCTTCC	0.29
AAAGGAAG	0.413
TCCGGGCA	0.379

Study 5 — method: RNA Bind-n-Seq; molecule type: RNA; matrix: in vitro; concentration: not given; setting: RNA with constant flanks, ends assumed; reference: input RNA pool; reading: higher = stronger binding
Target: RING finger protein unkempt homolog, zinc fingers 1-6, GST-SBP tag (UNK, Homo sapiens, UniProt Q9C0B0, residues 30-357)
Chain of UniProt Q9C0B0 (30-357, looked up): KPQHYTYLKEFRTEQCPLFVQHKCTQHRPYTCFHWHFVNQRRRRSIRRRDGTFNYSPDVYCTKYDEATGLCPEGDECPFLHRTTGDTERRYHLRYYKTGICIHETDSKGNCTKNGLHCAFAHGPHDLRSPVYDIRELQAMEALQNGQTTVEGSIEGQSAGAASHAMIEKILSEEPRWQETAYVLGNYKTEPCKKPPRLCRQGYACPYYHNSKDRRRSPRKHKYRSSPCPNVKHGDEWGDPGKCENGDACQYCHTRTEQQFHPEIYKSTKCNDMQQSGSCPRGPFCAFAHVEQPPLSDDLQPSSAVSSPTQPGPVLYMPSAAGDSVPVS
Shared flanks, not repeated: GGGAGUUCUACAGUCCGACGAUC … CAACAGAGGAUUGAGCAUCA
Sequence	bound/input enrichment [ratio]
CUAUAGAGGGAAAUAAUAGACAGAUUAAGAUGAAAGAAAAGCUUUCUGGGAUGAUUCAGUUACCGGAAAUGCCAAGAAAAGGGCAUUUAAUUAUAAUAUCCUAAUUUUACAUCACAACAU	1.68
UCUCUCCUCCUAAGUUACGGGGCAGAUCCAACCCUGCUGAACUGUCACAAUAAAAGUGCUACCGACCUGGCCCCCACGGCACAGCUGAAGGAAAGAUUAUCGUAUGAAUUUAAAGGCCAU	0.169
CUACCAACCAGACCAGGACUUAAUAAAGCACAACUUGUUGAGAUAGUUGGUUGCCACUUCCGGUCUAUUCCAGUGAAUGAAAAAGACACCUUAACAUAUUUCAUCUACUCAGUGAAGAAU	0.155
CCUGACAGCUGGGUGUGUGACUUAGGUAGGUGAGCCUGUGAAACAGUAUGAAGAGAAGAAAACCGCCUUUUAAAGAGACUGGCCCACAGAAAGGAUGGCCUUCUUGGACAAUCCAACUAU	0.34
AGAAACGGUGAACUCCCCAGCUAUUUAUAAAUUUCAGAGUCGUCGAAAACGUUGACGUGUUACCGAUAAGCCUUGUCAUUCUGUAUCAAAAAUCUGUUGUCGUUUUCUAGUAACUUCAAA	0.782
GAAACAUUUAAAUUUAAAGAAGCUGUUGUUCUAGGAAGUACGGACUUUCUAGAAGAUGAUACCGAGAAAAUUGUAGAAGAACUGGGGAAAGAGUAUAAGGGCAACGCCUACCAUCUGAUG	0.636
GAGUUCCAUCUUUUCUCUAGGAAGGUAGAAGAGAUUUUGAAGGAGAAGAAUGUUUCAUAUGUCCGUGCAAUUUCCACACCUAUCUUUUCAGCACAAGAGAAGAUGAAUCGCCUUUCUGAG	0.134
UUAGGAGAAGAUUGCAGAUGAUAGAAUGUCCUAUCCGCCCAUCCCCUGCUUUGCAGCUCAAACCGUUACUCUAAGCUUUGGGUAUUCUACAAAGUUUUCUUAAUUCUUGGAGCAGAGUAU	0.198

Study 6 — method: aptamer microarray, sandwich; molecule type: DNA with 2'F-ANA; matrix: in vitro; concentration: 200 nM; together with: Cy3 exosite-II aptamer, 400 nM; reading: higher = stronger binding; sequence: GGTTGGTGTGGTTGG
Target: Prothrombin, mature alpha-thrombin (F2, Homo sapiens, UniProt P00734)
Setting: whole 15-mer aptamer, many near background
Modification	mean fluorescence intensity [a.u.]
2'F-ANA at 2 5 12 14	46.1
2'F-ANA at 2 4 6 7 8 9 11 12 13	309
2'F-ANA at 2 4 8 9 14	97.8
2'F-ANA at 1 3 4 5 6 11 13 14	46.3
2'F-ANA at 3 5 6 7 8 10	127
2'F-ANA at 1 2 3 4 10 11 12 15	72
2'F-ANA at 2 5 6 8 9 11 15	65.2
2'F-ANA at 4 5 6 8 12 13 15	90.4
2'F-ANA at 1 2 3 5 8 12	127
2'F-ANA at 3 4 5 6 12 14 15	114
2'F-ANA at 1 4 10 11 12 15	54.7
2'F-ANA at 1 4 7 10 13 15	48.7
2'F-ANA at 1 2 3 7 10 11 12 13 14 15	70
2'F-ANA at 2 3 6 7 9 10 11 14 15	228
2'F-ANA at 1 3 6 7 8 9 11 12 13 15	357

Some of these lines once more (study 1):
Sequence	log fluorescence
TCATGTTGCAGACTCGAACTGTGCTAG	0.573 z-score
TTAGAACTGGGGTATAGATTAGTGCTA	-0.394 z-score
GACGAATTCAGTCTCGAGACGTGCTAG	0.55 z-score
AGACCATCCTGTATGGATGTGTGCTAG	-0.156 z-score
TCAGGTGTTCTTTTCTGACTGTGCTAG	-0.0698 z-score
TTAGGTTCCCTTTTCCTTTTGTGCTAG	4.44 z-score
TTAGGACTGGACGATCGGTTAGTGCTA	-0.62 z-score
TTAGGTATCAGTATCGGTTAGTGCTAG	1.29 z-score
GACGGACTGGGTTTCGGGAAGTGCTAG	0.694 z-score
GACGGTATCCTTCTCATGACGTGCTAG	0.236 z-score
GACGGACTGGGGTTTCGGCACGTGCTA	-0.464 z-score
TTAGGTTCCGGGACTGGGTTAGTGCTA	0.712 z-score
GACGGTAACCTTCTCCTGACGTGCTAG	-0.552 z-score
